Measured values pooled from the literature.
Compare with care: the assays were run in different laboratories. Values joined by “and” are separate records of one study, mostly repeats; a detail may differ.
MAPK14: Mitogen-activated protein kinase 14 (MAPK14, Homo sapiens, UniProt Q16539)
UniProt Q16539, sequence (whole entry, unmodified, looked up): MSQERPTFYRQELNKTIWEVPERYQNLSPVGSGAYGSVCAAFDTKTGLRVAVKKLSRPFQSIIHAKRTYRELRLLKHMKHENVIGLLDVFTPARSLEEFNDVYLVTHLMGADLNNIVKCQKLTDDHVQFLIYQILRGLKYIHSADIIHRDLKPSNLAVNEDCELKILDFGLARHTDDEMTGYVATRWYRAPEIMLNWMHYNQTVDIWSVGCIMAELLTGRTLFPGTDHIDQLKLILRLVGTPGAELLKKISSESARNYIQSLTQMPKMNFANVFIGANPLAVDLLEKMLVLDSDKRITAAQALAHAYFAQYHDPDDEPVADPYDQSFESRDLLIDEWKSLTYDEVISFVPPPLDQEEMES

For `CNC(=O)C[C@H](Cc1ccc(C#N)cc1)NC(=O)c1cc(-c2ccc(CN[C@H](C)c3ccc(C)cc3)o2)ccc1Cl`, “activity vs control” read 104% (MAPK14; enzyme activity, inhibitor; 1 µM).
For `O=C(Cc1ccc(OCc2ccccc2)cc1)NC1(C(=O)O)CCN(C(=O)c2ccc(-c3cccc(Cl)c3)cc2)CC1`, “activity vs control” read 128% (MAPK14; enzyme activity, inhibitor; 10 µM).
`CCN1CCN(Cc2ccc(NC(=O)c3ccc(C)c(NC(=O)c4cncc(-c5cccs5)c4)c3)cc2C(F)(F)F)CC1` gave a remaining binding of 0.7% (MAPK14; binding, competition with immobilised ligand; 1 µM).
With `COC(=O)[C@@]1(Cc2ccccc2)C=C(C(=O)OC(C)(C)C)C(=O)CC1` the fraction bound was 0.00215 (MAPK14 (Homo sapiens, UniProt Q16539, C119V); peptide binding, fluorescence polarization; 1000 µM).
`CN1CC[C@@H](COc2cnc(C#N)cc2-c2ccn3nc(NC(=O)C4CC4)cc3c2)C1` gave an inhibition of 0% (MAPK14; enzyme activity, inhibitor; 1 µM).
With `COc1ccc(NC(=O)Nc2ccc3c(c2)C(=O)N(C(C)CO)CC(C)C(CN(C)Cc2ccc4c(c2)OCO4)O3)cc1` (stereo not shown) the remaining activity was 106% (MAPK14; kinase activity, KinaseProfiler; 0.03 µM, species human; baseline: control).
`CC(C)=CC1OC(C)(C)C2C=C3C(=O)C(Cl)=CC(O)C3C3C(O)C4OC4C(=O)C132` (stereo not shown) has a remaining binding of 93% (MAPK14; cell-free assay, competition with immobilised ligand; 10 µM).
With `COc1cc(Nc2nccc(-c3cnn4nc(OC)ccc34)n2)cc(C(F)(F)F)c1` the remaining binding was 100% (MAPK14; binding, competition with immobilised ligand; 1 µM).
For `NC(=O)C[C@H]1CCc2sc3ncnc(O[C@H]4CC[C@H](N5CCOCC5)CC4)c3c21`, the inhibition was 0% (MAPK14; enzyme activity, inhibitor; 10 µM).
With `O=C=[N][Ru-4]123([n]4c5ccc(O)cc5c5c6c(c7cc(F)c[n+]1c7c54)C(=O)NC6=O)[S+]1CC[S+]2CC[S+]3CC1` (stereo not shown) the remaining activity was 106% (MAPK14 (Homo sapiens, UniProt Q16539, T106M); enzyme activity; 100 nM, human enzyme, added: 10 µM ATP; baseline: untreated).
`CNC(=O)C1CCN(c2cc(C)c(F)cc2NC(=O)c2ccc(-c3cc(O)ccc3C)c(C)c2)CC1` has a remaining binding of 95% (MAPK14; binding, competition with immobilised ligand; 1 µM).
The inhibition of `C=CC(=O)Nc1cccc(-c2cnc3[nH]cc(C(=O)NC(C)(C)C)c3n2)c1` is reported as 1% and 10% (MAPK14; kinase activity; 0.1 µM).
The remaining activity of `Cc1ccc(C)c(-c2ccc3nc(NC(=O)C4CCCCC4)nn3c2)c1` is reported as 95% (MAPK14; enzyme activity, Dundee kinase panel; 10 µM).
`Nc1nc(Nc2ccccc2)sc1C(=O)c1ccccc1` has a remaining activity of 14% (MAPK14; enzyme activity, inhibitor; 10 µM).
`CN(C)c1ccc(-n2cc(COC(=O)[C@]3(C)C=C(C(=O)OC(C)(C)C)C(=O)CC3)nn2)cc1` — result for “luminescence relative to control”: 0.646 (Mitogen-activated protein kinase 14, with MKK6 (MAPK14, Homo sapiens, UniProt Q16539); protein-protein interaction, NanoBiT, item: MKK6-p38α binding; HEK293T; 10 µM; baseline: DMSO control).
`CCn1cc(C(=O)O)c(=O)c2c(N)c(F)c(NC3CCCCC3)cc21` gave an inhibition of 31.3% (MAPK14; kinase activity; 0.1 µM, added: ATP at Km).
With `COc1cc(-n2cc3cc(F)cc(C(N)=O)c3n2)cc(Cl)c1C1CC(O)(CCO)Cc2ccccc21` (stereo not shown) the inhibition was 0.39% (MAPK14; enzyme activity, inhibitor; 10 µM).
With `C#CCOC(=O)[C@]1(C)C=C(C(=O)OC(C)(C)C)C(=O)CC1` the normalized luminescence was -0.137 and -0.0083 and -0.029 (MAPK14; kinase activity, Kinase-Glo luminescence; concentration not given).
`CS(=O)(=O)Nc1cccc(-c2csc3cnc(Nc4ccc(N5CCN(CCCCCOc6cccc7c6C(=O)N(C6CCC(=O)NC6=O)C7=O)CC5)cc4)nc23)c1` (stereo not shown) has an inhibition of 9.62% (MAPK14; probe labelling, inhibitor, KiNativ chemoproteomics; MOLT-4; 1 µM).
The remaining activity of `Cc1cccc(-c2ccc3nc(NC(=O)C4CCCCC4)nn3c2)c1` is reported as 86% (MAPK14; enzyme activity, Dundee kinase panel; 10 µM).
For `O=C(O)CCC(=O)c1cccc(NS(=O)(=O)c2c[nH]c3ncccc23)c1`, the remaining activity was 88% (MAPK14; kinase activity, radiometric; 10 µM).
For `Cc1cnc2nc1Nc1cccc(c1)COC/C=C/COCc1cc(ccc1OCCN1CCOCC1)N2`, the remaining signal was 89% (MAPK14; cell-free assay; 0.1 µM).
The inhibition of `Cc1nc2c(F)cc(-c3nc(Nc4ccc(CNC(=O)CCCCCCC(=O)NO)cc4)ncc3F)cc2n1C(C)C` is reported as 24% (MAPK14; enzyme activity, inhibitor; 1 µM).
`CNC1C[S+]2CC[S+]3CC[S+](C1)[Ru-4]321([N]=C=S)[n]2c3ccc(OC)cc3c3c4c(c5cc(F)c[n+]1c5c32)C(=O)NC4=O` (stereo not shown) has a remaining binding of 98% (MAPK14; KinomeScan; 0.1 µM; baseline: untreated).
`CC1CCc2nc(-c3c[nH]nc3-c3ccccc3)ccc2N1` (stereo not shown) has a remaining binding of 14% (MAPK14; cell-free assay, competition with immobilised ligand; 10 µM).
For `CC(=O)N1c2ccc(-c3ccc(CNC(=O)c4cn5cc(-c6cnc(N)nc6)nc(N6CCOCC6)c5n4)cc3)cc2CC[C@@H]1C`, the remaining binding was 100% (MAPK14; KINOMEscan; 10 µM).
`CN1CCN(Cc2ccc(NC(=O)c3cccc(C#Cc4cnc(N)c5ncccc45)c3)cc2C(F)(F)F)CC1` has a remaining binding of 0.7% (MAPK14; cell-free assay, competition with immobilised ligand; 0.5 µM).
With `Cc1cccc(O[C@H]2CCC[C@@H](C(C)CNCc3ccncc3)C2)c1` (relative stereo) the inhibition was 3% (MAPK14; kinase activity, kinome panel screening; 1 µM).
